Results pooled from the literature.
Numbered parts are unrelated; each lists some results of a single study. Changes are numbered by the printed parent chain.

Study 1
Target: CCND2, cyclin fold, Cln2 fusion (human)
Method: yeast growth competition, sequencing
Sample: yeast
Notes: weak parent motif
Reference: not given
Direction: higher = stronger binding
Measurement: normalised enrichment score
Parent: viral docking peptide; CKVKRKLFGSENI; partner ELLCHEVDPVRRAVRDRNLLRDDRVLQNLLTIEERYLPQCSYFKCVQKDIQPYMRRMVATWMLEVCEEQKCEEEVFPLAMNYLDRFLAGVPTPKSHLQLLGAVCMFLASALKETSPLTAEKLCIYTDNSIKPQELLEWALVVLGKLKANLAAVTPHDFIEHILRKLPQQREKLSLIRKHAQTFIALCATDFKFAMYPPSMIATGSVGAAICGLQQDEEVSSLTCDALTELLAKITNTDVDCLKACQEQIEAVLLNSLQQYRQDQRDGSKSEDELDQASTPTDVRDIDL
G9A: 0.249
R5A L7A: 0.295
V3A: 0.537
K2A: 0.265

Study 2
Target: UDP-N-acetylglucosamine--peptide N-acetylglucosaminyltransferase 110 kDa subunit (OGT, Homo sapiens, UniProt O15294)
Effect on: binding
Method: phage display NGS
Form: peptide
Reference: input library
Measurement: minimum log2 enrichment ratio
Target sequence (O15294 1-1046): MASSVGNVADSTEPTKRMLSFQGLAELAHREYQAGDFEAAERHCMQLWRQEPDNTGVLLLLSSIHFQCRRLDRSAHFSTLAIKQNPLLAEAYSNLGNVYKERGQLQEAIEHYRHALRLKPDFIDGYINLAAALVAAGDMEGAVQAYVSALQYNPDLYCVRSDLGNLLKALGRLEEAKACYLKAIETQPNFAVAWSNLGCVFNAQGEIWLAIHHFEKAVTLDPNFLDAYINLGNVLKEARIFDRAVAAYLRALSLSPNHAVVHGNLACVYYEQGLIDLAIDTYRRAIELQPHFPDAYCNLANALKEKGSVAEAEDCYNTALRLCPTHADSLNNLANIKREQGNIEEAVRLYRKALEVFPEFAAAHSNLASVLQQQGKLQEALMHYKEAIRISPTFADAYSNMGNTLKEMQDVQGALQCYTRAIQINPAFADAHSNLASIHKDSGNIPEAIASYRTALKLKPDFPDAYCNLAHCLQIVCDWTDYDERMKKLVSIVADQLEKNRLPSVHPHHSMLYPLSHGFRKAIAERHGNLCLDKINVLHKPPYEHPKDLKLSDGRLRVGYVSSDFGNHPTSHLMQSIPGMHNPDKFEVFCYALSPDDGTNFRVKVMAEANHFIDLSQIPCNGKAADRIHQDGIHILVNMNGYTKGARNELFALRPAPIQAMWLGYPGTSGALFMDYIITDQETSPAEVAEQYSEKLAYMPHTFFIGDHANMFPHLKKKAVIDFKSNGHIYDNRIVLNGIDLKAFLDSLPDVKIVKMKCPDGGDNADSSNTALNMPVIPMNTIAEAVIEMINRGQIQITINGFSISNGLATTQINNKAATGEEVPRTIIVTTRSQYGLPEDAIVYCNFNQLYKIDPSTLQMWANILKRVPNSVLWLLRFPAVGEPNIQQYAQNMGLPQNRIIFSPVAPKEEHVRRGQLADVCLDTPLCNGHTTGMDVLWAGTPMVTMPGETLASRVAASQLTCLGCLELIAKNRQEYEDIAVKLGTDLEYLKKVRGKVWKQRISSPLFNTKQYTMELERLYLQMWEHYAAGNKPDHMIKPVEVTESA
RNLHWDHHGPEHQHF: 2.99
DRLFLPAYQIYPDVV: 4.21
VHIDNWNHHHYAAVE: 2.6
ISVPVFGKYMPFYQI: 3.02
SYMPVYQIDYTPAV: 5.46
QEARSRFTPMYQITI: 4.49
HLHRDIHNKYNSIVN: 1.38
SIIPLAHVHNDHHAH: 2.93

Study 3
Target: tungstate, free oxyanion
Method: microfluidic competitive inhibition
Sample: in vitro, cell-free expressed
Concentration: not given
Notes: derived from inhibition constants, unchanged parent 2230 nM
Direction: lower = stronger binding
Measurement: oxyanion analog dissociation constant
Parent: PafA, mature enzyme, eGFP fusion (Elizabethkingia meningoseptica, UniProt Q9KJX5); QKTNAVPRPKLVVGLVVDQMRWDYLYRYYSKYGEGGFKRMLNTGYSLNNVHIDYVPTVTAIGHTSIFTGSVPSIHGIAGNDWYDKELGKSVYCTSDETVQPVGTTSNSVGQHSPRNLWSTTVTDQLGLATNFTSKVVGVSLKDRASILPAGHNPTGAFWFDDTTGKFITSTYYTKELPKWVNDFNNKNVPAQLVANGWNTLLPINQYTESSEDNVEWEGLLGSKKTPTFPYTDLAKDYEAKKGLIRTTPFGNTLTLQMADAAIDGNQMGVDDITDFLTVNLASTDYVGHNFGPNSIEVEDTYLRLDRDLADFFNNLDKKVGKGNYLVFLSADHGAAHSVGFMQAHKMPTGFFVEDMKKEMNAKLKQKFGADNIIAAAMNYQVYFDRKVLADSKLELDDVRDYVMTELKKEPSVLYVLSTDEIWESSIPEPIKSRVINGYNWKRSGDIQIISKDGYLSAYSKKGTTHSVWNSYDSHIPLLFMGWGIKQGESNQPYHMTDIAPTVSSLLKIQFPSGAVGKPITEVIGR
D162G: 12.2 µM
D237G: 1.24 µM
V388A: 1.51 µM
R115G: 2.2 µM
L389V: 1.9 µM
Q100G: 1.94 µM
T163G: 1.42 µM
Q448G: 2.51 µM

Further values, each from its own experiment
Cc1ccc(C(=O)n2nc(-c3cccnc3)nc2N)cc1
inhibition (chymotrypsin; enzyme activity, inhibitor; 10 µM, with DTT): 103%

Excerpt of the above (study 1):
K2A: 0.265
R5A L7A: 0.295
V3A: 0.537
